Results gathered from unrelated publications.
Each line is one published result; not all experiments were run side by side.
Organism: Toxoplasma gondii

SMILES | assay | system | conditions | how to read | quantity | result
Cc1cc(O)c2c(=O)cc(-c3ccc(N(C)C)cc3)oc2c1-c1c(C)cc(O)c2c(=O)cc(-c3ccc(N(C)C)cc3)oc12 | parasite proliferation, 3H-uracil incorporation | HS27 host cells, ME49 tachyzoites |  |  | IC50 | > 50 µM
CC(C)(C)C1=CC(=NNC(=O)c2c[nH]cn2)C=C(C(C)(C)C)C1=O | parasite growth, fluorescence |  | 5 days, intracellular |  | IC50 | 40 µM
COc1ccc(Oc2cccc(OCCSC#N)c2)cc1 |  | hTERT fibroblasts, RFP-expressing tachyzoites |  |  | IC50 | 2.9 µM
Cc1ccc(C(=O)NN=C2C=C(C(C)(C)C)C(=O)C(C(C)(C)C)=C2)cc1 | parasite growth, fluorescence |  | 5 days, intracellular |  | IC50 | 2 µM
COc1cc(CNCCCNCc2ccc(OCc3ccccc3)c(OC)c2)ccc1OCc1ccccc1 |  | human foreskin fibroblasts | 1 µM | relative to: untreated | inhibition | ≥ 75%
Nc1ccc(S(=O)(=O)Nc2ncccn2)cc1 | parasite growth |  | intracellular |  | IC50 | 27.3 µM
COc1cc(OC)c2c(=O)cc(-c3ccc(Br)cc3)oc2c1-c1c(OC)cc(OC)c2c(=O)cc(-c3ccc(Br)cc3)oc12 | parasite proliferation, 3H-uracil incorporation | HS27 host cells, ME49 tachyzoites |  |  | IC50 | 2.3 µM
CCc1nc(N)nc(N)c1-c1ccc(Cl)cc1 | parasite growth |  | intracellular |  | IC50 | 16.1 µM
COc1ccc(CNCCCCCCCCCCCCNCc2ccc(OC)cc2)cc1 |  | human foreskin fibroblasts | 1 µM | relative to: untreated | inhibition | ≥ 75%
CC(/C=C/C(=O)NO)=C\[C@@H](C)C(=O)c1ccc(N(C)C)cc1 | intracellular growth, [3H]uracil incorporation | HFF, RH wild type |  |  | EC50 | 0.4 µM
CC[C@H]1OC(=O)[C@H](C)[C@@H](O[C@H]2C[C@@](C)(OC)[C@@H](O)[C@H](C)O2)[C@H](C)[C@@H](O[C@@H]2O[C@H](C)C[C@H](N(C)C)[C@H]2O)[C@](C)(O)C[C@@H](C)CN(Cc2ccccc2)[C@H](C)[C@@H](O)[C@]1(C)O |  |  | 10 µM, 24 h post-infection |  | parasitophorous vacuole density | decreased
CC1(C)CC(=NNC(=O)c2ccncc2)CC(C)(C)C1=O | parasite growth, fluorescence |  | 5 days, intracellular |  | IC50 | > 100 µM
CC1(C)COC(c2ccc(-c3cn(C45CC6CC(CC(C6)C4)C5)nn3)cc2)OC1 |  | ME49, male Brown Norway rats | intraperitoneal, 3 mg/kg daily for 14 days |  | brain cyst number | ~20 cysts per brain
CC(C)(C)c1nn(-c2cc(OCc3cn(Cc4ccccc4[N+](=O)[O-])nn3)c(Cl)cc2Cl)c(=O)o1 | parasite growth, luciferase |  | 96 h, intracellular |  | IC50 | 20 to 27 µM
CC(C)(NC(=O)c1cc2c(Cl)cc(Cl)cc2[nH]1)c1cn(Cc2ccc(Cl)c(Cl)c2)nn1 |  | ME49, male Brown Norway rats | intraperitoneal, 4 mg/kg daily for 14 days |  | brain cyst number | ~20 cysts per brain
N#CSCCOc1ccc(Oc2cccc([N+](=O)[O-])c2)cc1 |  | hTERT fibroblasts, RFP-expressing tachyzoites |  |  | IC50 | 2 µM

A few entries again:
SMILES | assay | system | conditions | how to read | quantity | result
CC(/C=C/C(=O)NO)=C\[C@@H](C)C(=O)c1ccc(N(C)C)cc1 | intracellular growth, [3H]uracil incorporation | HFF, RH wild type |  |  | EC50 | 0.4 µM
COc1cc(CNCCCNCc2ccc(OCc3ccccc3)c(OC)c2)ccc1OCc1ccccc1 |  | human foreskin fibroblasts | 1 µM | relative to: untreated | inhibition | ≥ 75%
CC(C)(C)C1=CC(=NNC(=O)c2c[nH]cn2)C=C(C(C)(C)C)C1=O | parasite growth, fluorescence |  | 5 days, intracellular |  | IC50 | 40 µM
